Results gathered from unrelated publications.
Lines come from different studies, so protocols differ. “And” joins repeats or separate records; there may be more than shown. Numbers after ± are the reported error.
Adenosylmethionine-8-amino-7-oxononanoate aminotransferase: Adenosylmethionine-8-amino-7-oxononanoate aminotransferase (Mycobacterium tuberculosis, UniProt P9WQ81)
ANPEP: Aminopeptidase N (ANPEP, Sus scrofa, UniProt P15145)
folA: Dihydrofolate reductase (folA, Escherichia coli, UniProt P0ABQ4)
T1: DNA aptamer; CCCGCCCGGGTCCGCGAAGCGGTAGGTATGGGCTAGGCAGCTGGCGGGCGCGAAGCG

The Ki of `C[C@H]1O[C@H](O[C@H]2[C@H](O)[C@@H](O)[C@@H](O[C@H]3[C@H](O)[C@@H](O)C(O)O[C@@H]3CO)O[C@@H]2CO)[C@H](O)[C@@H](O)[C@@H]1N[C@H]1C=C(CO)[C@@H](O)[C@H](O)[C@H]1O` (stereo partly shown) is reported as 0.0947 ± 0.0069 µM (susA (Bacteroides thetaiotaomicron, UniProt Q8A1G0); uncompetitive inhibitor; pH 7.0, together with: pNP-G6 substrate).
`NC(=O)c1ccc(-c2ccccn2)s1` has a ΔTm of 6.3 ± 0.3 °C (Adenosylmethionine-8-amino-7-oxononanoate aminotransferase; thermal stability, differential scanning fluorimetry; 5 mM, holo enzyme; reference: DMSO).
For `OC[C@H]1O[C@@H](O[C@@H]2[C@@H](O)[C@H](O[C@@H]3[C@@H](O)[C@H](O[C@@H]4[C@@H](O)[C@H](O[C@@H]5[C@@H](O)[C@H](O[C@H]6[C@H](O)[C@@H](CO)OC(O)[C@@H]6O)O[C@H](CO)[C@H]5O)O[C@H](CO)[C@H]4O)O[C@H](CO)[C@H]3O)O[C@H](CO)[C@H]2O)[C@H](O)[C@@H](O)[C@@H]1O` (stereo partly shown), the ΔH was -59.3 kcal/mol (uncharacterized protein (Bacteroides thetaiotaomicron, UniProt A0A173VPY3); ITC; pH 7.0, 25 °C).
`N#Cc1cc(Cc2ccc3c(ccc4ccccc43)c2C#N)cc2c1ccc1ccccc12` gave a remaining activity of 0.563 ± 0.004 (ANPEP; enzyme activity; 3 µM, 30 min preincubation, undiluted, unit not given; reference: untreated).
`O=C[C@@H](O)[C@@H](O)[C@H](O)[C@H](O)COP(=O)(O)O`: phosphatase activity “active” (uncharacterized protein (Bacteroides thetaiotaomicron, UniProt Q8A183); activator, phosphate release; concentration not given, together with: Mg2+).
With `C(=C1c2ccccc2-c2c1ccc1ccccc21)c1cc2c3c(cccc3c1)-c1ccccc1-2` the remaining activity was 0.967 ± 0.002 (ANPEP; enzyme activity; 3 µM, 30 min preincubation, diluted 10-fold, unit not given; reference: untreated).
`[Ca+2]` — result for “relative specific activity”: 0.059 (uncharacterized protein (Bacteroides thetaiotaomicron, UniProt Q8A4G9); phosphatase activity, activator, phosphate release; 5 mM, EDTA-treated enzyme, together with: substrate 9 mM; reference: activity with Mg2+).
For `O=C(NNC(=NS(=O)(=O)c1ccc(-n2nc(C(F)(F)F)cc2-c2cccs2)cc1)N1CCCC1)c1ccc(Cl)cc1`, the remaining activity was 0.51 ± 0.001 (ANPEP; enzyme activity; 3 µM, 30 min preincubation, undiluted, unit not given; reference: untreated).
Under “relative specific activity”, `[Mg+2]` is recorded as 1 (uncharacterized protein (Bacteroides thetaiotaomicron, UniProt Q8A183); phosphatase activity, activator, phosphate release; 5 mM, EDTA-treated enzyme, together with: substrate 20 mM; reference: activity with this ion).
`O=c1c2ccccc2[se]n1-c1ccccc1` has an ATPase inhibition of > 50% (Replicase polyprotein 1ab, nsp13 helicase (rep, Severe acute respiratory syndrome coronavirus 2, UniProt P0DTD1); RNA-stimulated ATP hydrolysis, ADP-Glo; 100 µM).
`[Co+2]`: “relative specific activity” 0.041 (uncharacterized protein (Bacteroides thetaiotaomicron, UniProt Q8A183); phosphatase activity, activator, phosphate release; 5 mM, EDTA-treated enzyme, together with: substrate 4 mM; reference: activity with Mg2+).
`Oc1ccc(Cc2ccc(Cl)cc2)c(O)c1` has a Kd of 65.6 ± 11.1 µM (folA; differential scanning fluorimetry; estimate from thermal shift).
For `O=[N+]([O-])c1ccc(O[C@H]2O[C@H](CO)[C@@H](O)[C@H](O)[C@@H]2O)cc1`, the kcat was 67 ± 5 s⁻¹ (Beta-mannosidase (Bacteroides thetaiotaomicron, UniProt Q8AAK6); substrate, absorbance; pH 5.6, 37 °C, together with: p-nitrophenyl β-D-mannopyranoside 0.125-2 mM).
`C=C1[C@@H](O)[C@@H]2O[C@]3(CC[C@H](/C=C/[C@@H](C)[C@@H]4CC(C)=C[C@@]5(O[C@H](C[C@@](C)(O)C(=O)O)CC[C@H]5O)O4)O3)CC[C@H]2O[C@@H]1[C@@H](O)C[C@H](C)[C@H]1O[C@@]2(CCCCO2)CC[C@H]1C` has a Kd of 0.0567 µM (T1, DNA aptamer; microscale thermophoresis; pH 7.5, 25 °C, NaCl 150 mM).
For `O=P(O)(O)OC[C@H]1OC(O)[C@H](O)[C@@H](O)[C@@H]1O` (stereo partly shown), phosphatase activity read “active” (uncharacterized protein (Bacteroides thetaiotaomicron, UniProt Q8A4G9); activator, phosphate release; concentration not given, together with: Mg2+).
For `N#Cc1ccccc1-c1cc(NCCCN2CCCCC2)c2ccccc2n1`, inhibitory potency read “increased” (Low molecular weight phosphotyrosine protein phosphatase (Bos taurus, UniProt P11064, N51E/W50Y); concentration not given; reference: wild type).
For `O=P(O)(O)OC1O[C@H](CO)[C@@H](O)[C@H](O)[C@@H]1O` (stereo partly shown), phosphatase activity read “inactive” (uncharacterized protein (Bacteroides thetaiotaomicron, UniProt Q8A4G9); activator, phosphate release; concentration not given, together with: Mg2+).
The -TΔS of `OC[C@H]1O[C@@H](O[C@@H]2[C@@H](O)[C@H](O[C@@H]3[C@@H](O)[C@H](O[C@@H]4[C@@H](O)[C@H](O[C@H]5[C@H](O)[C@@H](CO)OC(O)[C@@H]5O)O[C@H](CO)[C@H]4O)O[C@H](CO)[C@H]3O)O[C@H](CO)[C@H]2O)[C@H](O)[C@@H](O)[C@@H]1O` (stereo partly shown) is reported as 6.98 kcal/mol (uncharacterized protein (Bacteroides thetaiotaomicron, UniProt A0A173VPY3); ITC; pH 7.0, 25 °C).
`COc1ccc(CC(=O)c2ccc(O)cc2O)cc1` has a Kd of 182 ± 21.6 µM (folA; differential scanning fluorimetry; estimate from thermal shift).
With `COc1cc([C@@H]2c3cc4c(cc3[C@@H](O[C@@H]3O[C@@H]5CO[C@@H](C)O[C@H]5[C@H](O)[C@H]3O)[C@H]3COC(=O)[C@H]23)OCO4)cc(OC)c1O` the inhibition was 86.4% and 6.1% (DNA topoisomerase 2-alpha (TOP2A, Homo sapiens, UniProt P11388); DNA decatenation; 100 µM).
For `[Mn+2]`, “relative specific activity” read 0.02 (uncharacterized protein (Bacteroides thetaiotaomicron, UniProt Q8A183); phosphatase activity, activator, phosphate release; 5 mM, EDTA-treated enzyme, together with: substrate 4 mM; reference: activity with Mg2+).
The ΔTm of `CC(=O)Nc1ccc2c(c1)C=CC2=O` is reported as 3.6 ± 0.2 °C (Adenosylmethionine-8-amino-7-oxononanoate aminotransferase; thermal stability, differential scanning fluorimetry; 5 mM, holo enzyme; reference: DMSO).

Excerpt of the above:
For `O=P(O)(O)OC1O[C@H](CO)[C@@H](O)[C@H](O)[C@@H]1O` (stereo partly shown), phosphatase activity read “inactive” (uncharacterized protein (Bacteroides thetaiotaomicron, UniProt Q8A4G9); activator, phosphate release; concentration not given, together with: Mg2+).
The -TΔS of `OC[C@H]1O[C@@H](O[C@@H]2[C@@H](O)[C@H](O[C@@H]3[C@@H](O)[C@H](O[C@@H]4[C@@H](O)[C@H](O[C@H]5[C@H](O)[C@@H](CO)OC(O)[C@@H]5O)O[C@H](CO)[C@H]4O)O[C@H](CO)[C@H]3O)O[C@H](CO)[C@H]2O)[C@H](O)[C@@H](O)[C@@H]1O` (stereo partly shown) is reported as 6.98 kcal/mol (uncharacterized protein (Bacteroides thetaiotaomicron, UniProt A0A173VPY3); ITC; pH 7.0, 25 °C).
`COc1ccc(CC(=O)c2ccc(O)cc2O)cc1` has a Kd of 182 ± 21.6 µM (folA; differential scanning fluorimetry; estimate from thermal shift).
